# Measurements of several laboratories.
# Protocols differ between the studies behind these lines. Values joined by “and” are separate records of one study, mostly repeats; a detail may differ. Numbers after ± are the reported error.
Structure (SMILES),assay,system,conditions,CL/F
Cn1nnc2c(C(N)=O)ncn2c1=O,,"human patients, plasma","oral, 30 mg/m2, day 5, dose level DL4, median, with: talazoparib 600 µg/m2",6.3 L/h/m2
C[C@H](Oc1ccc(Br)cc1-c1ccon1)C(=O)O,,"healthy male humans, plasma","oral, 200 mg once daily, day 10",4.99 L/h
CCCCCCCCCCCCCCCC(=O)N[C@@H](CCC(=O)NCCCC[C@@H]1NC(=O)[C@H]([C@@H](C)CC)NC(=O)[C@@H](NC(=O)[C@@H]2CCCN2C(=O)[C@H](Cc2ccccc2)NC(=O)[C@H](Cc2c[nH]cn2)NC(=O)[C@@H](NC(=O)[C@H](CC(=O)O)NC(=O)CC(C)C)[C@@H](C)O)CSSC[C@@H](C(=O)N[C@@H](CCCCN)C(N)=O)NC(=O)CNC(=O)[C@H](CCCCN)NC(=O)[C@H](CO)NC(=O)[C@H](CCCNC(=N)N)NC(=O)[C@@H]2CCCN2C(=O)[C@H](CCC(=O)O)NC(=O)[C@H](Cc2ccccc2)NC1=O)C(=O)O,,healthy human,"subcutaneous, 20 mg, aqueous formulation",1.5 L/h
C[C@H]1Oc2cc(cnc2N)-c2c(nn(C)c2C#N)CN(C)C(=O)c2ccc(F)cc21,,"human patients, plasma","oral, cycle 2 day 1, geometric mean, with: avelumab",17 L/h
COC(=O)N[C@@H](C)CNc1nccc(-c2cn(C(C)C)nc2-c2cc(Cl)cc(NS(C)(=O)=O)c2F)n1,,"human, plasma","oral, 50 mg, alone, diltiazem study",29 L/h
C#C[C@]1(CO)O[C@@H](n2cnc3c(N)nc(F)nc32)C[C@@H]1O,,"human, plasma","oral, 15 mg, single dose, geometric mean",32.5 L/h
Cn1c(=O)oc2ccc(-c3ccc(C[C@@H](C#N)NC(=O)[C@@H]4CNCCCO4)cc3)cc21,,"human, moderate renal impairment, plasma","oral, 25 mg single dose, mean",6.09 L/h
C[C@@H](Cn1ccc(-c2ccc(C#N)c(Cl)c2)n1)NC(=O)c1cc([C@@H](C)O)[nH]n1,,"human, fasted, plasma","oral solution, 300 mg 14C-darolutamide, geometric mean",21.2 L/h
Cc1ncnc2c1ccn2[C@@H]1C[C@H](Oc2cc(C(F)F)c(F)c3c2CNCC3)[C@@H](O)[C@H]1O,,human,"oral, 2 mg twice daily",6.55 L/h and 13.5 L/h
Cn1cc(-c2cn3nccc3c(-c3cnn([C@]4(CC#N)C[C@@H](C#N)C4)c3)n2)cn1,,"healthy human, plasma","30 mg once daily, day 10, multiple dose, fed, geometric mean",39.9 L/h
COC(=O)N[C@H](C(=O)N1CCC[C@H]1c1nc(-c2ccc(-c3ccc(-c4c[nH]c([C@@H]5CCCN5C(=O)[C@@H](NC(=O)OC)C(C)C)n4)cc3)cc2)c[nH]1)C(C)C,population PK base model without covariates,human,,4.87 L/h
Cl.[2H]C([2H])([2H])CC(=O)c1cnc(NC(=O)C2CC2)cc1Nc1cccc(-c2ncn(C([2H])([2H])[2H])n2)c1OC,geometric mean,human,"40 mg twice daily, day 1, fed, liquid, multiple dose",15.2 L/h
N#Cc1ccc2c(c1)[C@H]1CCCN(C(=O)c3ccc4[nH]cnc4c3)[C@H]1C2,,human,"80 mg once daily, day 1",2.67 L/h
CN1C(=O)[C@@H](NC(=O)c2nnc(Cc3ccccc3)[nH]2)COc2cccnc21,,"healthy human, fasted, plasma","oral, 30 mg single dose, geometric mean",5.39 L/h
CCn1cc(C(=O)N2CCOCC2)c(=O)c2cc(NC3Cc4ccccc4C3)cnc21,,"human, fed","oral suspension, 300 mg/day twice daily, day 8, arithmetic mean",31.2 L/h
N#CCNC(=O)c1ccc(-c2ccnc(Nc3ccc(N4CCOCC4)cc3)n2)cc1,population PK model,human,,64.7 L/h
C[C@@H](Oc1ccc(S(C)(=O)=O)cc1C(=O)N1C[C@@H]2C[C@]2(c2cc(C(F)(F)F)on2)C1)C(F)(F)F,,"elderly humans, plasma","50 mg once daily, single dose, geometric mean",6.06 L/h
N#CN1C[C@H](n2nc(-c3ccc(Oc4ccc(Cl)cn4)cc3)c(C(N)=O)c2N)CCC12CC2,,human fasted,"oral, 600 mg",31.4 ± 14.1 L/h
Cn1cncc1[C@@](N)(c1ccc(Cl)cc1)c1ccc2c(c1)c(-c1cccc(Cl)c1)cc(=O)n2C,,"human, male, plasma","oral, across dose levels",630 mL/min/m²
NC(CO)(CO)CCc1ccc(Sc2cccc(OCc3ccccc3)c2)cc1Cl,,"human, whole blood","3 mg, mean, with: itraconazole 200 mg once daily",20.8 L/h
C#Cc1cccc(Nc2ncnc3cc(OCCOC)c(OCCOC)cc23)c1,,human,"oral, 50 mg, day 1",8.59 ± 4.52 L/h
CC1(COc2ccc3c(c2)ncn3-c2ccc3cccc(N4CCC(N)CC4)c3n2)COC1,,"human patients, recurrent/progressive HGG or DIPG, serum","oral, 170 mg/m^2, day 1, median",38.9 L/h/m²
CC1(C)CC[C@]2(NC(=O)C(C)(F)F)CC[C@]3(C)[C@H](C(=O)C=C4[C@@]5(C)C=C(C#N)C(=O)C(C)(C)[C@@H]5CC[C@]43C)[C@@H]2C1,,human,"150 mg, single dose alone",86.7 L/h
CCN1CCN(Cc2ccc(Nc3ncc(F)c(-c4cc(F)c5nc(C)n(C(C)C)c5c4)n3)nc2)CC1,,fasted healthy human subjects,"oral, 200 mg, 2 × 100 mg capsules",50.8 L/h
CCN1CCN(Cc2ccc(Nc3ncc(F)c(-c4cc(F)c5nc6n(c5c4)[C@H](C)CCC6)n3)nc2)CC1,,"human, Phase Ib patients, plasma","300 mg, multiple doses, mean, with: fulvestrant",43.6 L/h
Cc1ccc(C(=O)NC2CC2)cc1-n1ncc(C(=O)c2cccc(C#N)c2)c1N,,human,mass balance study,3.9 L/h
CC(C)c1nc(N(C)S(C)(=O)=O)nc(-c2ccc(F)cc2)c1/C=C/[C@@H](O)C[C@@H](O)CC(=O)O,,"healthy human subjects, plasma","oral, 10 mg, arithmetic mean, with: fruquintinib 5 mg",360 L/h
[H]/N=C(/N)c1ccc(NCc2nc3cc(C(=O)N(CCC(=O)O)c4ccccn4)ccc3n2C)cc1,,"human, plasma","75 mg, alone, geometric mean",144 L/h
NC(=S)NN=Cc1ncccc1N,,"human, plasma","oral, 100 mg",97.5 L/h
Cc1cc(/C=C/C#N)cc(C)c1Nc1ccnc(Nc2ccc(C#N)cc2)n1,,"human, haemodialysis patients","oral, steady state, fixed-dose combination",17.7 L/h

# Repeated from above:
Structure (SMILES),assay,system,conditions,CL/F
Cn1cc(-c2cn3nccc3c(-c3cnn([C@]4(CC#N)C[C@@H](C#N)C4)c3)n2)cn1,,"healthy human, plasma","30 mg once daily, day 10, multiple dose, fed, geometric mean",39.9 L/h
COC(=O)N[C@H](C(=O)N1CCC[C@H]1c1nc(-c2ccc(-c3ccc(-c4c[nH]c([C@@H]5CCCN5C(=O)[C@@H](NC(=O)OC)C(C)C)n4)cc3)cc2)c[nH]1)C(C)C,population PK base model without covariates,human,,4.87 L/h
Cl.[2H]C([2H])([2H])CC(=O)c1cnc(NC(=O)C2CC2)cc1Nc1cccc(-c2ncn(C([2H])([2H])[2H])n2)c1OC,geometric mean,human,"40 mg twice daily, day 1, fed, liquid, multiple dose",15.2 L/h
